{"data": "Results from different studies", "note": "Protocols differ between the studies behind these lines. “And” joins repeats or separate records; there may be more than shown. Numbers after ± are the reported error."}
{"Structure (SMILES)": "NC(=O)Cc1ccc(O)c(Cc2ccc(O)cc2)c1", "test": "DPPH radical", "setting": "300 µg/mL", "quantity": "radical scavenging", "result": "29.3 ± 1.86%"}
{"Structure (SMILES)": "COC1CN([C@H]2CC[C@H]([C@@]3(C)Oc4c(Cl)cc(C(=O)NCc5c(SC)cc(C)[nH]c5=O)c(C)c4O3)CC2)C1", "test": "RNA-seq, item: ERRFI1", "test system": "human, whole blood", "setting": "dose not given, 24 h", "scale": "reference: pretreatment baseline", "quantity": "log2 fold change", "result": 1.42}
{"Structure (SMILES)": "Cc1cccc(C)c1CNc1cc(C(=O)N2CCC2)cn2c(C)c(C)nc12", "test": "gastric acid secretion", "test system": "dog Heidenhain pouch", "setting": "oral, 1 mg/kg, 9 h after dosing, added: histamine", "quantity": "inhibition", "result": "100%"}
{"Structure (SMILES)": "CCCCCCCCCCCCCCCC(=O)OCC(CSC[C@H](N)C(=O)N[C@@H](CO)C(=O)N[C@@H](CCCCN)C(=O)N[C@@H](CCCCN)C(=O)N[C@@H](CCCCN)C(=O)N[C@@H](CCCCN)C(=O)NCCCCCC(=O)N[C@@H](CCCCN)C(=O)N[C@@H](CC(C)C)C(=O)N[C@H](C(=O)N[C@@H](Cc1ccccc1)C(=O)N[C@@H](Cc1ccccc1)C(=O)N[C@@H](Cc1ccc2ccccc2c1)C(=O)O)C(C)C)OC(=O)CCCCCCCCCCCCCCC (stereo partly shown)", "test": "Thioflavin S staining", "test system": "APP/PS1 transgenic mouse, cortex", "setting": "local cortical injection, dose not given, unit not given", "scale": "reference: injected over adjacent side", "quantity": "Aβ plaque level", "result": "0.59 and 0.651 and 0.355 and 0.507 and 0.649 and 0.588 and 0.525 and 0.565"}
{"Structure (SMILES)": "Cc1ccc(S(=O)(=O)NN)cc1", "test": "hydrazine ligation kinetics, absorbance", "setting": "concentration not given, 25 s, added: 2-formylphenylboronic acid", "quantity": "normalised absorbance", "result": 0.828}
{"Structure (SMILES)": "NC[C@@H](C(=O)Nc1ccc(-c2cn[nH]c2)cc1)c1ccccc1", "test": "tonometry", "test system": "NZW rabbit, magnetic bead-induced ocular hypertension", "setting": "ocular, 0.03%, 2 h", "quantity": "IOP", "result": "34.3 mmHg"}
{"Structure (SMILES)": "COc1ccc(NC(=O)c2ccc3[nH]c(-c4ccc(N(C)C)cc4)nc3c2)cn1", "test system": "Lewis lung carcinoma, mice, syngeneic graft, subcutaneous", "setting": "intraperitoneal, 50 mg/kg daily, day 7", "quantity": "tumour volume", "result": "159 mm3 and 293 mm3 and 278 mm3 and 155 mm3"}
{"Structure (SMILES)": "Cc1cccc(NC(=O)CCN2CCN(C/C=C/c3ccccc3)CC2)c1", "test": "locomotor activity in dark", "test system": "Danio rerio larvae, 7 dpf, well of 10 larvae", "setting": "10 µM, minute 3, dark", "quantity": "third-quartile larval motion", "result": "1.5 ± 0.4 pixels/frame"}
{"Structure (SMILES)": "O=C(CCO)c1ccc(O)cc1", "test": "DPPH radical", "setting": "300 µg/mL", "quantity": "radical scavenging", "result": "17.1 ± 0.59%"}
{"Structure (SMILES)": "CC(C)C[C@H](NC(=O)[C@H](Cc1ccccc1)NC(=O)[C@H](C)NC(=O)[C@@H](CS)NC(=O)CNC(=O)[C@H](N)CO)C(=O)N[C@@H](CO)C(=O)N[C@H](C(=O)N[C@@H](CCCCN)C(=O)N[C@@H](CCCCN)C(=O)N[C@@H](CCC(N)=O)C(=O)N[C@@H](Cc1ccccc1)C(=O)N[C@@H](CCC(=O)O)C(=O)N[C@@H](CCC(=O)O)C(=O)N[C@@H](CC(C)C)C(=O)N[C@H](C(=O)N[C@@H](CC(C)C)C(=O)NCC(=O)N[C@@H](CCC(=O)O)C(=O)N[C@@H](Cc1ccccc1)C(=O)N[C@@H](CC(C)C)C(=O)N[C@H](CCCCN)C(=O)N[C@H](CC(C)C)C(=O)N[C@H](CC(=O)O)C(=O)N[C@@H](CCCNC(=N)N)C(=O)N[C@H](CCCNC(=N)N)C(=O)N[C@@H](CCCNC(=N)N)C(=O)N[C@@H](CCCCN)C(=O)O)[C@@H](C)O)C(C)C", "test": "immunofluorescence, RT-qPCR", "test system": "mouse A549 xenograft, tumour", "setting": "intravenous, 20 mg/kg", "quantity": "Ki-67 expression decrease", "result": "80%"}
{"Structure (SMILES)": "COc1cc2nc(N3CCN(C(=O)C4CC5(CC5)CO4)CC3)nc(N)c2cc1OC (stereo not shown)", "test": "blood pressure", "test system": "spontaneously hypertensive rat, male", "setting": "oral, 3 mg/kg", "quantity": "time to maximum BP lowering", "result": "15 min"}
{"Structure (SMILES)": "C=CC(=O)N1CC2C(=O)N(CCN(C)C)c3c(c4cc(Cl)c(-c5c(O)cccc5F)nc4n(-c4c(C)ccnc4C(C)C)c3=O)N2CC1C (stereo not shown)", "test": "immunohistochemistry", "test system": "BALB/c nude mouse, H358-Luc intracranial tumour, brain tissue", "setting": "100 mg/kg, 21 days", "quantity": "Ki-67 level", "result": "decreased"}
{"Structure (SMILES)": "O=C(NCC1OC2CCC=CCCC2O1)c1ccc(F)nc1 (stereo not shown)", "test": "IEDDA cycloaddition, substrate, stopped-flow spectrophotometry", "test system": "water/methanol 45:55", "setting": "0.5 mM, 298 K, added: methyltetrazine-NHS 0.05 mM", "quantity": "observed rate constant kobs", "result": "5.52 ± 0.0172 s⁻¹"}
{"Structure (SMILES)": "COc1cccc(OCC(O)CN2CCN(c3ccccc3OC)CC2)c1 (stereo not shown)", "test": "locomotor activity in dark", "test system": "Danio rerio larvae, 7 dpf, well of 10 larvae", "setting": "10 µM, minute 3, dark", "quantity": "third-quartile larval motion", "result": "10 ± 2 pixels/frame"}
{"Structure (SMILES)": "CC[C@H](C)[C@@H](C(=O)N[C@@H](CC(C)C)C(=O)N[C@@H](CO)C(=O)N[C@@H](CO)C(=O)N[C@H](C(=O)N[C@@H](CCC(=O)O)C(=O)N[C@H](C(=O)NCC(=O)N[C@@H](CO)C(=O)N[C@@H](CC(N)=O)C(=O)N[C@H](C(=O)N1C[C@H](O)C[C@H]1C(N)=O)[C@@H](C)O)C(C)C)[C@@H](C)O)N(C)C(=O)[C@H](C)NC(=O)CN(C)C(=O)[C@H](Cc1ccccc1)NC(=O)[C@H](CO)NC(=O)[C@H](CO)NC(=O)[C@H](CCCNC(=N)N)NC(=O)[C@H](CCC(N)=O)NC(=O)[C@H](CC(C)C)NC(=O)[C@H](Cc1ccccc1)NC(=O)[C@H](CCCC(=O)O)NC(=O)[C@H](C)NC(=O)[C@H](CC(C)C)NC(=O)[C@H](CCCNC(=N)N)NC(=O)[C@H](CCC(=O)O)NC(=O)[C@@H](NC(=O)[C@H](C)NC(=O)[C@@H]1CCCCNC(=O)C[C@H](NC(=O)[C@H](CCCNC(=N)N)NC(=O)CC[C@H](NC(=O)CCCCCCCCCCCCCCCCCCC(=O)O)C(=O)O)C(=O)NCC(=O)N[C@@H]([C@@H](C)O)C(=O)N[C@@H](C)C(=O)N[C@@H]([C@@H](C)O)C(=O)N1)[C@@H](C)O", "test system": "diet-induced obese rats", "setting": "subcutaneous, 15 nmol/kg every other day, day 20", "scale": "reference: day 0", "quantity": "body weight change", "result": "4.4%"}
{"Structure (SMILES)": "C[C@@H]1O[C@@H](OC[C@H]2O[C@@H](Oc3c(-c4ccc(O)cc4)oc4cc(O)cc(O)c4c3=O)[C@H](O[C@@H]3O[C@@H](C)[C@H](O)[C@@H](O)[C@H]3O)[C@@H](O)[C@@H]2O)[C@H](O)[C@H](O)[C@H]1O", "test": "Oil Red O", "test system": "3T3-L1, mouse", "setting": "5 µM, day 8", "quantity": "lipid content", "result": "decreased"}
{"Structure (SMILES)": "COc1ccccc1-c1ccncc1C(=O)Nc1nnc(OCc2ccc(Cl)cc2)s1", "test system": "Brca1 Δ11/Δ11 MEF sgGFP, Mus musculus", "setting": "5 µM, mean of runs 2, 3", "scale": "reference: 0 µM", "quantity": "colony survival", "result": "61.6%"}
{"Structure (SMILES)": "COc1ccc(C(=O)CCc2cc(C(CCc3ccc(O)cc3OC)c3ccc(O)cc3)c(O)cc2OC)cc1 (racemic)", "test": "item: 12-HEPE", "test system": "human whole blood", "setting": "30 µM, added: A23187", "quantity": "amount", "result": "227 ± 62 pg/mL blood"}
{"Structure (SMILES)": "COc1ccccc1C1NCCc2cc(O)c(O)cc21 (stereo not shown)", "test": "DPPH scavenging, absorbance", "setting": "30 min, dark", "quantity": "IC50", "result": "27.4 µM"}
{"Structure (SMILES)": "CC(=O)[O-].O.O.O.O.[Mn+2].[O-]c1ccc(Br)cc1C=NCCN1CCOCC1", "test": "superoxide scavenging", "setting": "40 µM", "quantity": "inhibition", "result": "7.15%"}
{"Structure (SMILES)": "CCOC(=O)C1=C(CSC2=NCCS2)NC(=O)NC1c1ccccc1 (stereo not shown)", "test": "DPPH scavenging", "quantity": "IC50", "result": "37.8 µM"}
{"Structure (SMILES)": "Cc1ccc(NC(=O)CCN2CCCCCC2)cc1C", "test": "locomotor activity in dark", "test system": "Danio rerio larvae, 7 dpf, well of 10 larvae", "setting": "10 µM, minute 1, dark", "quantity": "third-quartile larval motion", "result": "1.3 ± 0.4 pixels/frame"}
{"Structure (SMILES)": "NNC(=O)Cc1ccccc1", "test": "hydrazine ligation kinetics, absorbance", "setting": "concentration not given, 20 s, added: 2-formylphenylboronic acid", "quantity": "normalised absorbance", "result": 0.544}
{"Structure (SMILES)": "CCOC(=O)C1CCN(CCC(=O)Nc2ccccc2F)CC1", "test": "locomotor activity in dark", "test system": "Danio rerio larvae, 7 dpf, well of 10 larvae", "setting": "10 µM, minute 5, dark", "quantity": "third-quartile larval motion", "result": "0 pixels/frame"}
{"Structure (SMILES)": "CN1CCC[C@]1(C)/C=C/S(=O)(=O)NC(=O)Nc1c2c(cc3c1CCC3)CCC2", "test system": "human, whole blood ex vivo", "setting": "50 mg twice daily, day 14, 36 h, multiple ascending dose, added: LPS and ATP", "quantity": "IL-1β inhibition", "result": "91.5%"}
{"note": "Excerpt of the above:"}
{"Structure (SMILES)": "O=C(CCO)c1ccc(O)cc1", "test": "DPPH radical", "setting": "300 µg/mL", "quantity": "radical scavenging", "result": "17.1 ± 0.59%"}
{"Structure (SMILES)": "NC(=O)Cc1ccc(O)c(Cc2ccc(O)cc2)c1", "test": "DPPH radical", "setting": "300 µg/mL", "quantity": "radical scavenging", "result": "29.3 ± 1.86%"}
{"Structure (SMILES)": "CC[C@H](C)[C@@H](C(=O)N[C@@H](CC(C)C)C(=O)N[C@@H](CO)C(=O)N[C@@H](CO)C(=O)N[C@H](C(=O)N[C@@H](CCC(=O)O)C(=O)N[C@H](C(=O)NCC(=O)N[C@@H](CO)C(=O)N[C@@H](CC(N)=O)C(=O)N[C@H](C(=O)N1C[C@H](O)C[C@H]1C(N)=O)[C@@H](C)O)C(C)C)[C@@H](C)O)N(C)C(=O)[C@H](C)NC(=O)CN(C)C(=O)[C@H](Cc1ccccc1)NC(=O)[C@H](CO)NC(=O)[C@H](CO)NC(=O)[C@H](CCCNC(=N)N)NC(=O)[C@H](CCC(N)=O)NC(=O)[C@H](CC(C)C)NC(=O)[C@H](Cc1ccccc1)NC(=O)[C@H](CCCC(=O)O)NC(=O)[C@H](C)NC(=O)[C@H](CC(C)C)NC(=O)[C@H](CCCNC(=N)N)NC(=O)[C@H](CCC(=O)O)NC(=O)[C@@H](NC(=O)[C@H](C)NC(=O)[C@@H]1CCCCNC(=O)C[C@H](NC(=O)[C@H](CCCNC(=N)N)NC(=O)CC[C@H](NC(=O)CCCCCCCCCCCCCCCCCCC(=O)O)C(=O)O)C(=O)NCC(=O)N[C@@H]([C@@H](C)O)C(=O)N[C@@H](C)C(=O)N[C@@H]([C@@H](C)O)C(=O)N1)[C@@H](C)O", "test system": "diet-induced obese rats", "setting": "subcutaneous, 15 nmol/kg every other day, day 20", "scale": "reference: day 0", "quantity": "body weight change", "result": "4.4%"}
{"Structure (SMILES)": "CCOC(=O)C1=C(CSC2=NCCS2)NC(=O)NC1c1ccccc1 (stereo not shown)", "test": "DPPH scavenging", "quantity": "IC50", "result": "37.8 µM"}
